Measured values from different studies.
Numbers after ± are the reported error.
CYP2B6: Cytochrome P450 2B6 (CYP2B6, Homo sapiens, UniProt P20813)
Sequence of UniProt P20813 (whole entry, looked up): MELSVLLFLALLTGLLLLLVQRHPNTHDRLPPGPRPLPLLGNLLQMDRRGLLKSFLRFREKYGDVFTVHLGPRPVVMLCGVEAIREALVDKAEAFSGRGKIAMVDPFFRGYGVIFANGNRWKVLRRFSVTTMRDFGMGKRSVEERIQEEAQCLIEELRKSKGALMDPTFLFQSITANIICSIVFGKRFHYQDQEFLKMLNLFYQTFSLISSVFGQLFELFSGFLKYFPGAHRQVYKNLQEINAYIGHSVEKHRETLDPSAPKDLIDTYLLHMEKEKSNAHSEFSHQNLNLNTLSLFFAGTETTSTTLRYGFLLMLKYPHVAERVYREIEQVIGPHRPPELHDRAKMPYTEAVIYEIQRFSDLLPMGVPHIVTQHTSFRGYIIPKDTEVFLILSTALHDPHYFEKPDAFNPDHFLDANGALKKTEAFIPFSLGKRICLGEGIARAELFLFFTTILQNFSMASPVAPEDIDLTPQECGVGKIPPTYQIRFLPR
Sequence of UniProt P02769 (whole entry, looked up): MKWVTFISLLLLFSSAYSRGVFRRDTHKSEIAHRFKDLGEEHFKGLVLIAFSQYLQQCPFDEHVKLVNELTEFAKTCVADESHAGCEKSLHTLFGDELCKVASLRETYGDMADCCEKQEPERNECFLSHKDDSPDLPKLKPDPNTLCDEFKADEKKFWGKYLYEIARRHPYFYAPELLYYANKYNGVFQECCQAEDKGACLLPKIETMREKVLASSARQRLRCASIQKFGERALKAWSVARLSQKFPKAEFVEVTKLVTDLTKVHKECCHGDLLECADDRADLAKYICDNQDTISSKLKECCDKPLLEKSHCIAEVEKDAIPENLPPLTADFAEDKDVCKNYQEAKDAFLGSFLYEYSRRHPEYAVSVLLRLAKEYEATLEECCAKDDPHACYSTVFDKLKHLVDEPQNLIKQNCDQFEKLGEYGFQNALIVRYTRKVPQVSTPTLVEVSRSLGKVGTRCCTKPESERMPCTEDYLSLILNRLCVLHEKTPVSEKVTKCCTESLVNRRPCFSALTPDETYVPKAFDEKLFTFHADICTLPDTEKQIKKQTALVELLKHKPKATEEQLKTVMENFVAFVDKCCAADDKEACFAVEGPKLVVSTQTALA
Sequence of UniProt P31391 (whole entry, looked up): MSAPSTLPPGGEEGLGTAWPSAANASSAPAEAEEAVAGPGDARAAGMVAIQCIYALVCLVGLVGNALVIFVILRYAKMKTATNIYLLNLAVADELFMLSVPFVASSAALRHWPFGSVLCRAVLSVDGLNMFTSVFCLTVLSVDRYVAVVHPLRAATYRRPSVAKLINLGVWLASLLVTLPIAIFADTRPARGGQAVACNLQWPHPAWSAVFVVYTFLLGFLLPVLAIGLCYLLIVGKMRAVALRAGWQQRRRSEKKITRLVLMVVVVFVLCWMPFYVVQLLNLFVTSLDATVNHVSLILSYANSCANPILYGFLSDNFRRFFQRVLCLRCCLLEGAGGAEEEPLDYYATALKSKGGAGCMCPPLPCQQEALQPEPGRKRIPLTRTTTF
Sequence of UniProt Q01959 (whole entry, looked up): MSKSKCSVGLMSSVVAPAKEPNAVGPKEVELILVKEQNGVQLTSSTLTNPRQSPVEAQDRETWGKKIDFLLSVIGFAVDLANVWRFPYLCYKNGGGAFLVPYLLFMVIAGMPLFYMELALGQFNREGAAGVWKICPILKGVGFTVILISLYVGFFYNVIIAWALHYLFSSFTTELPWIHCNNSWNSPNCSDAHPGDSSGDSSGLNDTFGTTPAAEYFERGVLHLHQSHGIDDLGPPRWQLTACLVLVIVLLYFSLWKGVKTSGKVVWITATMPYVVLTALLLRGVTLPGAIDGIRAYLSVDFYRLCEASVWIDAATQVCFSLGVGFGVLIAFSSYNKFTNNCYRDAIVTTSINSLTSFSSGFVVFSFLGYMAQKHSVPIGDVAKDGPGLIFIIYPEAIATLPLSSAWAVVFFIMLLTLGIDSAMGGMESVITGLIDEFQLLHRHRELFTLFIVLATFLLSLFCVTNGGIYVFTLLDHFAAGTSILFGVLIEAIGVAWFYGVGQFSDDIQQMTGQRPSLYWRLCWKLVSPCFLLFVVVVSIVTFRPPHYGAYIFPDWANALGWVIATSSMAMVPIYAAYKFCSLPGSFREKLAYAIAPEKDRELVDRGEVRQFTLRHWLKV
Sequence of UniProt P78352 (whole entry, looked up): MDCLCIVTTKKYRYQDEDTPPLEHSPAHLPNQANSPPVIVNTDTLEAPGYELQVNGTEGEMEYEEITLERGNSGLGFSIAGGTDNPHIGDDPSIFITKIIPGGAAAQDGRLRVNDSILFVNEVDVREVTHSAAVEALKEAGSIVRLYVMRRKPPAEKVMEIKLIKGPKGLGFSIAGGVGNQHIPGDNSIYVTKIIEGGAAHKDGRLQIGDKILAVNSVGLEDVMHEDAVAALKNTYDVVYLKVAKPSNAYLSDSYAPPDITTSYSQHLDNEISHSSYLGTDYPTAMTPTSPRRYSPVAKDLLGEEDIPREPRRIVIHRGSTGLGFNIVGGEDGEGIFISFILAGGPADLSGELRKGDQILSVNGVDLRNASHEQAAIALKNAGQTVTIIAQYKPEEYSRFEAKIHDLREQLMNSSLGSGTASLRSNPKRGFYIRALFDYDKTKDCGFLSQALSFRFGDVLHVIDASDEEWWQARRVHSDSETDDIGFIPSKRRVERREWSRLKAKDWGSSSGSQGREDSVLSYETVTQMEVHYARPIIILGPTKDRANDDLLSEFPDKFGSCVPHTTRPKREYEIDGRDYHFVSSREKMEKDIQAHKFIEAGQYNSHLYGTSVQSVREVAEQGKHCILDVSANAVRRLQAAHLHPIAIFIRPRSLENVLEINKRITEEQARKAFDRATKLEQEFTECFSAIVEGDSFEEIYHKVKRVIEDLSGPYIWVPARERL

`C[C@H](NC(=O)[C@H](CCC(N)=O)NC(=O)[C@H](CCCCN)NC(=O)[C@H](C)NC(=O)[C@@H]1CCCN1C(=O)[C@H](C)NC(=O)[C@H](CCCCN)NC(=O)[C@H](CCC(N)=O)NC(=O)[C@H](C)NC(=O)[C@H](CCCCN)NC(=O)[C@H](CCC(N)=O)NC(=O)[C@@H]1CCCN1C(=O)[C@H](CCC(N)=O)NC(=O)[C@H](CCCCN)NC(=O)[C@H](C)NC(=O)[C@H](CCC(N)=O)NC(=O)[C@H](CCCCN)NC(=O)[C@H](C)NC(=O)[C@@H]1CCCN1C(=O)[C@H](C)NC(=O)[C@H](CCCCN)NC(=O)[C@H](CCC(N)=O)NC(=O)[C@H](C)NC(=O)[C@H](CCCCN)NC(=O)[C@H](CO)NC(=O)[C@H](Cc1ccc(O)cc1)NC(=O)CNC(=O)CNC(=O)CN)C(=O)N[C@@H](CCCCN)C(=O)N[C@@H](CCC(N)=O)C(=O)O` has a Kd of 0.071 µM (binding, SPR two-state model; rVλ6Wil fibrils).
For `CC[C@H](C)[C@H](NC(=O)[C@H](CCCCN)NC(=O)CNC(=O)[C@@H](NC(=O)[C@@H](NC(=O)[C@H](CC(N)=O)NC(=O)[C@H](CC(=O)O)NC(=O)[C@@H](N)CC(=O)O)C(C)C)[C@@H](C)CC)C(=O)N[C@@H](Cc1c[nH]c2ccccc12)C(=O)N[C@@H](CO)C(=O)N[C@@H](CCCCN)C(=O)N[C@@H](CC(C)C)C(=O)N[C@H](C(=O)N[C@H](C(=O)N[C@H](C(=O)N[C@H](C(=O)N[C@H](C(=O)N[C@@H](CCCCN)C(=O)N[C@H](C(=O)N[C@@H](Cc1ccccc1)C(=O)N[C@H](C(=O)N[C@@H](CCCCN)C(=O)O)[C@@H](C)O)[C@@H](C)CC)[C@@H](C)O)[C@@H](C)CC)C(C)C)[C@@H](C)O)[C@@H](C)CC`, the Kd was 42 µM (lipid vesicle binding; POPC vesicles; pH 7.5).
`CC(=O)N[C@@H](Cc1c[nH]cn1)C(=O)N[C@@H](CCCNC(=N)N)C(=O)N[C@@H](CCCNC(=N)N)C(=O)N[C@@H](CCCNC(=N)N)C(=O)N[C@@H](CCCNC(=N)N)C(=O)N[C@@H](CCCNC(=N)N)C(=O)N[C@@H](CCCNC(=N)N)C(=O)N[C@@H](CCCNC(=N)N)C(=O)N[C@@H](CCCNC(=N)N)C(=O)N[C@@H](Cc1c[nH]cn1)C(N)=O` gave a Kb of 240000 M⁻¹ (Albumin (ALB, Bos taurus, UniProt P02769); fluorescence quenching; added: site competitor ibuprofen).
`NCCCC[C@H](NC(=O)CNC(=O)CNC(=O)[C@H](CCCCN)NC(=O)CNC(=O)CNC(=O)CNC(=O)[C@H](CCCCN)NC(=O)CNC(=O)CNC(=O)[C@H](CCCCN)NC(=O)CNC(=O)CNC(=O)CNC(=O)[C@H](CCCCN)NC(=O)CNC(=O)CNC(=O)[C@H](CCCCN)NC(=O)CNC(=O)CNC(=O)CNC(=O)[C@H](CCCCN)NC(=O)CNC(=O)CNC(=O)[C@H](CCCCN)NC(=O)[C@H](CO)NC(=O)[C@H](Cc1ccc(O)cc1)NC(=O)CNC(=O)CNC(=O)CN)C(=O)NCC(=O)O` has a kd1 of 0.001 s⁻¹ (binding, SPR two-state model; rVλ6Wil fibrils; 300 nM).
`CCC[C@@H](C(=O)c1ccccc1)N1CCCC1` has a Ki of 0.01 µM (Sodium-dependent dopamine transporter (SLC6A3, Homo sapiens, UniProt Q01959); transporter uptake, inhibitor, radiometric).
`C[C@H](NC(=O)[C@H](CCC(N)=O)NC(=O)[C@H](C)NC(=O)[C@H](CCCCN)NC(=O)[C@H](CCC(N)=O)NC(=O)[C@H](C)NC(=O)[C@H](CCCCN)NC(=O)[C@H](CCC(N)=O)NC(=O)[C@H](C)NC(=O)[C@H](CCC(N)=O)NC(=O)[C@H](CCCCN)NC(=O)[C@H](C)NC(=O)[C@H](CCC(N)=O)NC(=O)[C@H](CCCCN)NC(=O)[C@H](C)NC(=O)[C@H](CCC(N)=O)NC(=O)[C@H](C)NC(=O)[C@H](CCCCN)NC(=O)[C@H](CCC(N)=O)NC(=O)[C@H](C)NC(=O)[C@H](CCCCN)NC(=O)[C@H](CO)NC(=O)[C@H](Cc1ccc(O)cc1)NC(=O)CNC(=O)CNC(=O)CN)C(=O)N[C@@H](CCCCN)C(=O)N[C@@H](CCC(N)=O)C(=O)N[C@@H](C)C(=O)N[C@@H](CCCCN)C(=O)N[C@@H](CCC(N)=O)C(=O)O` — result for “dissociation rate constant”: 0.00044 s⁻¹ (binding, SPR Langmuir fit; rVλ6Wil fibrils; 300 nM, pH 7.4).
The Ki of `CCCCCc1cc(O)c2c(c1)OC(C)(C)C1CCC(CO)=CC21` (stereo not drawn) is reported as 1.1 µM (CYP2B6; enzyme activity, inhibitor; HEK293, liver microsomes; pH 7.4).
`CC(C)[C@H](N)C(=O)N[C@@H](Cc1ccc(O)cc1)C(=O)N[C@@H](CCCCN)C(=O)N[C@H](C(=O)N[C@@H](CCCCN)C(=O)N[C@H](C(=O)N[C@@H](CCCCN)C(=O)N[C@H](C(=O)N[C@@H](CCCCN)C(=O)N[C@H](C(=O)N[C@@H](CCCCN)C(=O)N[C@H](C(=O)N[C@@H](CCCCN)C(=O)N[C@H](C(=O)N[C@@H](CCCCN)C(=O)N[C@H](C(=O)N[C@@H](CCCCN)C(=O)N[C@H](C(=O)O)[C@@H](C)O)C(C)C)[C@@H](C)O)C(C)C)[C@@H](C)O)C(C)C)[C@@H](C)O)C(C)C` gave a Kd of 0.025 µM (binding, SPR two-state model; rVλ6Wil fibrils).
With `CC[C@H](C)[C@H](NC(=O)[C@H](Cc1c[nH]c2ccccc12)NC(=O)[C@H](CCCCN)NC(=O)[C@@H](NC(=O)[C@H](CC(C)C)NC(=O)[C@H](CCCCN)NC(=O)CNC(=O)[C@@H](NC(=O)[C@@H](NC(=O)[C@H](CO)NC(=O)[C@@H](NC(=O)[C@@H](NC(=O)[C@H](CCCCN)NC(=O)[C@H](CCC(N)=O)NC(=O)[C@H](C)NC(=O)[C@H](CCSC)NC=O)[C@@H](C)CC)[C@@H](C)CC)[C@@H](C)O)[C@@H](C)CC)C(C)C)C(=O)N[C@H](C(=O)N[C@@H](CCCCN)C(=O)N[C@H](C(=O)N[C@H](C(=O)N[C@@H](CC(N)=O)C(=O)N[C@@H](CCCCN)C(=O)N[C@@H](Cc1ccccc1)C(=O)N[C@H](C(=O)N[C@@H](CCCCN)C(=O)N[C@@H](CCCCN)C(=O)O)[C@@H](C)O)C(C)C)[C@@H](C)O)[C@@H](C)CC` (racemic) the Kd was 400 µM (membrane binding, stopped-flow FRET; POPC vesicles; pH 7.5, room temperature).
`CSCC[C@H](NC(=O)[C@@H]1CSSC[C@H](NC(=O)[C@H](CCCCN)NC(=O)[C@H](Cc2ccc(O)cc2)NC(=O)CNC(=O)[C@@H](N)CC(C(=O)O)C(=O)O)C(=O)N[C@@H](C(C)C)C(=O)N[C@H](Cc2c[nH]c3ccccc23)C(=O)N[C@@H](CCCCN)C(=O)N[C@@H]([C@@H](C)O)C(=O)N1)C(=O)N1C[C@H](O)C[C@H]1C(=O)N[C@@H](C)C(=O)O` has an EC50 of 5.1 µM (Somatostatin receptor type 4 (SSTR4, Homo sapiens, UniProt P31391); β-arrestin recruitment, agonist).
For `CC(C)C[C@H](NC(=O)[C@H](CO)NC(=O)CNC(=O)[C@@H](N)CO)C(=O)N[C@@H](CO)C(=O)N[C@H](C(=O)N[C@@H](Cc1ccccc1)C(=O)N[C@@H](Cc1ccccc1)C(=O)N[C@@H](CCCNC(=N)N)C(=O)N[C@@H](CC(C)C)C(=O)N[C@@H](Cc1ccccc1)C(=O)N[C@@H](CC(N)=O)C(=O)N[C@@H](CCCNC(=N)N)C(=O)N[C@@H](CO)C(=O)N[C@@H](Cc1ccccc1)C(=O)N[C@H](C(=O)N[C@@H](CCC(N)=O)C(=O)N[C@@H](C)C(=O)O)[C@@H](C)O)[C@@H](C)O`, the EC50 was 0.0062 µM (uncharacterized protein (Streptococcus mutans serotype c, UniProt Q8DS94); Streptococcus mutans).
The AC50 of `COc1ccc(C[C@H]2C(=O)N(C)[C@@H](Cc3ccc(O)cc3)C(=O)N(C)[C@@H](Cc3ccccc3)C(=O)N[C@@H](CC(N)=O)C(=O)NCC(=O)N(C)[C@@H](Cc3ccc(O)cc3)C(=O)N[C@@H](CC(N)=O)C(=O)N[C@@H](Cc3c[nH]cn3)C(=O)N[C@@H](Cc3ccc(O)cc3)C(=O)N[C@@H](Cc3c[nH]c4ccccc34)C(=O)N[C@H](C(N)=O)CSCC(=O)N[C@H](Cc3ccc(O)cc3)C(=O)N[C@@H](CC(=O)O)C(=O)N[C@@H](CO)C(=O)N[C@@H](Cc3ccc(O)cc3)C(=O)N[C@@H](C)C(=O)N2C)cc1` is reported as 0.977 µM (2,3-bisphosphoglycerate-independent phosphoglycerate mutase (Helicobacter pylori, UniProt B5Z7X6); biochemical).
For `OC[C@H]1[C@@H](O)[C@@H](O)CN1Cc1ccc(I)cc1`, the IC50 was 6100 µM (Lysosomal alpha-mannosidase (Drosophila melanogaster, UniProt Q9VKV1); pH 5.2, added: 2 mM pNP-Man).
With `CCCCCc1cc(O)c2c(c1)OC(C)(C)C1CCC(C)=CC21` (single isomer, unassigned; (-)) the IC50 was 0.43 ± 0.28 µM (CYP2B6; inhibitor; HEK293 overexpressing CYP2B6, recombinant microsomes; pH 7.4, corrected for incubation binding, added: bupropion).
For `CC(C)[C@H](NC(=O)[C@H](CCCNC(=N)N)NC(=O)[C@@H](NC(=O)[C@H](CCC(N)=O)NC(=O)[C@H](CCC(N)=O)NC(=O)[C@@H](NC(=O)[C@H](Cc1c[nH]c2ccccc12)NC(=O)[C@@H]1CCCN1C(=O)[C@@H]1CCCN1C(=O)[C@H](Cc1ccc(N)cc1)NC(=O)[C@H](CO)NC(=O)CNC(=O)[C@H](CCCNC(=N)N)NC(=O)[C@H](CCCNC(=N)N)NC(=O)[C@H](CCCNC(=N)N)NC(=O)[C@H](CCCNC(=N)N)NC(=O)[C@H](CCCNC(=N)N)NC(=O)[C@@H](N)CCCNC(=N)N)C(C)C)[C@@H](C)O)C(=O)O`, the Kd was 0.0678 µM (Disks large homolog 4, PDZ3 domain (Homo sapiens, UniProt P78352); binding, SPR; pH 7.5, 25 °C).

For quick reference, copied from above:
For `CC[C@H](C)[C@H](NC(=O)[C@H](CCCCN)NC(=O)CNC(=O)[C@@H](NC(=O)[C@@H](NC(=O)[C@H](CC(N)=O)NC(=O)[C@H](CC(=O)O)NC(=O)[C@@H](N)CC(=O)O)C(C)C)[C@@H](C)CC)C(=O)N[C@@H](Cc1c[nH]c2ccccc12)C(=O)N[C@@H](CO)C(=O)N[C@@H](CCCCN)C(=O)N[C@@H](CC(C)C)C(=O)N[C@H](C(=O)N[C@H](C(=O)N[C@H](C(=O)N[C@H](C(=O)N[C@H](C(=O)N[C@@H](CCCCN)C(=O)N[C@H](C(=O)N[C@@H](Cc1ccccc1)C(=O)N[C@H](C(=O)N[C@@H](CCCCN)C(=O)O)[C@@H](C)O)[C@@H](C)CC)[C@@H](C)O)[C@@H](C)CC)C(C)C)[C@@H](C)O)[C@@H](C)CC`, the Kd was 42 µM (lipid vesicle binding; POPC vesicles; pH 7.5).
